Published values gathered from unrelated publications.
Compare with care: the assays were run in different laboratories. ± marks the error that the study gave.

SMILES	target or system	test	test system	setting	measurement	value
CC(=O)N[C@@H](CC(C)C)C(=O)N[C@H]1CSSC[C@@H](C(=O)N2CCC[C@H]2C(N)=O)NC(=O)[C@H]([C@@H](C)O)NC(=O)[C@H](C(C)C)NC(=O)[C@H]([C@@H](C)O)NC(=O)[C@H](CCCCN)NC(=O)[C@H](CC(C)C)NC(=O)[C@H](Cc2ccccc2)NC(=O)[C@H](Cc2ccc(O)cc2)NC(=O)[C@H](CC(C)C)NC(=O)[C@H](CCCCN)NC(=O)[C@H](Cc2ccccc2)NC(=O)[C@H](CCCNC(=N)N)NC(=O)[C@H](CCC(N)=O)NC(=O)[C@H](CC(C)C)NC(=O)[C@H](CCCCN)NC(=O)[C@@H]2CCCN2C(=O)[C@H](CCCCN)NC(=O)[C@H](C(C)C)NC(=O)[C@H](CC(N)=O)NC(=O)[C@H](Cc2ccc(O)cc2)NC(=O)[C@H]([C@@H](C)O)NC1=O	Vibrio alginolyticus	broth dilution	–	24 h	MIC	> 40 µM
OB(O)c1cnn(-c2cc(Cl)ncn2)c1	Klebsiella aerogenes	bacterial growth	AmpC overproducer clinical isolate	without cefotaxime	MIC	1020 µg/mL
CC(=O)N[C@@H](CC(C)C)C(=O)N[C@H]1CSSC[C@@H](C(=O)N2CCC[C@H]2C(N)=O)NC(=O)[C@H](CCCCN)NC(=O)[C@H](C(C)C)NC(=O)[C@H](CCCCN)NC(=O)CNC(=O)[C@H](CC(C)C)NC(=O)[C@H](Cc2ccccc2)NC(=O)[C@H](CCCCN)NC(=O)[C@H](CC(C)C)NC(=O)[C@H](CCC(=O)O)NC(=O)[C@H](Cc2ccccc2)NC(=O)[C@H](CCCNC(=N)N)NC(=O)[C@H](CCCCN)NC(=O)[C@H](CC(C)C)NC(=O)[C@H](CC(=O)O)NC(=O)[C@@H]2CCCN2C(=O)[C@H](CCCCN)NC(=O)[C@H](C(C)C)NC(=O)[C@H](CCCCN)NC(=O)[C@H](CCCCN)NC(=O)[C@H](CCCCN)NC1=O	Shigella flexneri	broth dilution	CGMCC strain	24 h	MIC	1.25 to 2.5 µM
COc1ccc(C2=[N+]([O-])c3ccccc3N3CC(C)(C)CN=C23)cc1	Bacteroides spp. and Parabacteroides distasonis	–	–	–	MIC	0.125 to 1 µg/mL
O=C1NC2(CC2)COc2ncc(F)cc2[C@H]2COCCN2c2ccn3ncc1c3n2	–	–	Sprague-Dawley rat, female, serum	oral, 2.5 mg/kg/day, 4 weeks daily, end of treatment	pancreatic amylase activity	1530 ± 243 U/L
CC(=O)N[C@@H](CC(C)C)C(=O)N[C@H]1CSSC[C@@H](C(=O)N2CCC[C@H]2C(N)=O)NC(=O)[C@H]([C@@H](C)O)NC(=O)[C@H](C(C)C)NC(=O)[C@H]([C@@H](C)O)NC(=O)CNC(=O)[C@H](CC(C)C)NC(=O)[C@H](Cc2ccccc2)NC(=O)[C@H](Cc2ccc(O)cc2)NC(=O)[C@H](CC(C)C)NC(=O)[C@H](CCCCN)NC(=O)[C@H](Cc2ccccc2)NC(=O)[C@H](CCCNC(=N)N)NC(=O)[C@H](CCCCN)NC(=O)[C@H](CC(C)C)NC(=O)[C@H](CCCCN)NC(=O)[C@@H]2CCCN2C(=O)[C@H](CCCCN)NC(=O)[C@H](C(C)C)NC(=O)[C@H](CC(N)=O)NC(=O)[C@H](Cc2ccc(O)cc2)NC(=O)[C@H]([C@@H](C)O)NC1=O	Vibrio alginolyticus	broth dilution	–	24 h	MIC	5 to 10 µM
CC[C@H](C)[C@H](NC(=O)[C@H](CCCCN)NC(=O)[C@H](CCCCN)NC(=O)[C@H](Cc1ccccc1)NC(=O)[C@H](Cc1ccccc1)NC(=O)[C@H](CCCCN)NC(=O)[C@H](CCCCN)NC(=O)[C@H](Cc1ccccc1)NC(=O)[C@H](CCCNC(=N)N)NC(=O)[C@@H](N)CCCCN)C(=O)N[C@@H](CCCCN)C(=O)N[C@@H](CCCCN)C(=O)N[C@@H](CO)C(=O)N[C@H](C(=O)N[C@@H](CCCCN)C(=O)N[C@@H](CCCCN)C(=O)N[C@@H](CCCNC(=N)N)C(=O)N[C@H](C(=O)N[C@@H](CCCCN)C(=O)N[C@@H](CCCCN)C(=O)N[C@@H](CC(C)C)C(=O)N[C@@H](Cc1ccccc1)C(=O)N[C@@H](CCCCN)C(=O)N[C@@H](CCCCN)C(=O)N1CCC[C@H]1C(=O)N[C@@H](CCCNC(=N)N)C(=O)N[C@H](C(=O)N[C@H](C(=O)N1CCC[C@H]1C(=O)N[C@H](C(=O)N[C@@H](CO)C(=O)N[C@H](C(=O)N1CCC[C@H]1C(=O)N[C@@H](Cc1ccccc1)C(=O)O)[C@@H](C)CC)[C@@H](C)CC)[C@@H](C)CC)C(C)C)C(C)C)C(C)C	Pseudomonas aeruginosa	broth microdilution	P3 clinical isolate	20 h	MIC	4 µg/mL
CCCCCCCC(=O)NCCCC[C@H](NC(=O)CCCCCCC)C(=O)N[C@@H](CCCCNC(=O)CCCCCCC)C(=O)NCC(=O)NCC(=O)NCC(=O)N[C@@H](CS)C(=O)N[C@@H](CCCNC(=N)N)C(=O)N[C@@H](CCCCN)C(=O)N1CCC[C@H]1C(N)=O	Candida parapsilosis	broth microdilution	CGMCC 2.399, RPMI-1640	48 h, 30 °C	MIC	> 128 µM
CC(=O)N[C@@H](CC(C)C)C(=O)N[C@H]1CSSC[C@@H](C(=O)N2CCC[C@H]2C(N)=O)NC(=O)[C@H]([C@@H](C)O)NC(=O)[C@H](C(C)C)NC(=O)[C@H]([C@@H](C)O)NC(=O)CNC(=O)[C@H](CCCCN)NC(=O)[C@H](Cc2ccccc2)NC(=O)[C@H](Cc2ccc(O)cc2)NC(=O)[C@H](CCCCN)NC(=O)[C@H](CCC(=O)O)NC(=O)[C@H](Cc2ccccc2)NC(=O)[C@H](CCCNC(=N)N)NC(=O)[C@H](CCCCN)NC(=O)[C@H](CC(C)C)NC(=O)[C@H](CC(=O)O)NC(=O)[C@@H]2CCCN2C(=O)[C@H](CCCCN)NC(=O)[C@H](C(C)C)NC(=O)[C@H](CCCCN)NC(=O)[C@H](CCCCN)NC(=O)[C@H]([C@@H](C)O)NC1=O	Vibrio alginolyticus	broth dilution	–	24 h	MIC	> 40 µM
CC(C)C[C@@H]1NC(=O)[C@H](CCCNC(=N)N)NC(=O)[C@H](CCCNC(=N)N)NC(=O)[C@@H](NC(=O)[C@@H](N)CCC(=O)O)CSSC[C@@H](C(=O)N[C@@H](CCCNC(=N)N)C(=O)NCC(=O)N[C@@H](CCCNC(=N)N)C(N)=O)NC(=O)[C@H](Cc2ccc(O)cc2)NC(=O)[C@H]([C@@H](C)O)NC(=O)[C@H](C(C)C)NC(=O)[C@@H]2CSSC[C@H](NC1=O)C(=O)N[C@@H](Cc1ccc(O)cc1)C(=O)N[C@@H](CCCCN)C(=O)N[C@@H](CCC(N)=O)C(=O)N[C@@H](CCCNC(=N)N)C(=O)N2	Corynebacterium glutamicum	–	ATCC 13032	37 °C	MIC	0.195 µM
CN[C@H](CC(C)C)C(=O)N[C@H]1C(=O)N[C@@H](CC(N)=O)C(=O)N[C@H]2C(=O)N[C@H]3C(=O)N[C@H](C(=O)N[C@H](C(=O)NCC(N)=O)c4cc(O)cc(O)c4-c4cc3ccc4O)[C@H](O)c3ccc(c(Cl)c3)Oc3cc2cc(c3O[C@@H]2O[C@H](CO)[C@@H](O)[C@H](O)[C@H]2O[C@H]2C[C@](C)(NCc3ccc(OCc4cn(CC(=O)N[C@H](C(=O)N[C@@H](CCN)C(=O)N[C@H]5CCNC(=O)[C@H]([C@@H](C)O)NC(=O)[C@H](CCN)NC(=O)[C@H](CCN)NC(=O)[C@H](CC(C)C)NC(=O)[C@@H](CC(C)C)NC(=O)[C@H](CCN)NC5=O)[C@@H](C)O)nn4)c(OC)c3)[C@H](O)[C@H](C)O2)Oc2ccc(cc2Cl)[C@H]1O	Enterococcus faecalis	broth microdilution	vancomycin-resistant	–	MIC	48 µM
COc1ccc(C2=[N+]([O-])c3ccccc3N3CCCN=C23)cc1	Bacteroides spp. and Parabacteroides distasonis	–	–	–	MIC	0.5 to 2 µg/mL
CC(C)CCCCCCCCC/C=C/C(=O)N[C@@H](CC(N)=O)C(=O)N[C@H]1CNC(=O)[C@@H]2CCCN2C(=O)[C@H](C(C)C)NC(=O)[C@@H](CN)NC(=O)CNC(=O)[C@H](CC(=O)O)NC(=O)CNC(=O)[C@H](CC(=O)O)NC(=O)[C@H](CC(=O)O)NC(=O)[C@H]2CCCCN2C1=O	Enterococcus	broth microdilution	VRE 155, Mueller-Hinton broth, Mg2+ 10 mg/L	16 h, added: Ca2+ 2.5 mM	MIC	1 µg/mL
[O-][N+]1=C(c2ccc(Cl)cc2)C2=NCCCN2c2ccccc21	Bacteroides spp. and Parabacteroides distasonis	–	–	–	MIC	0.5 to 2 µg/mL
CSCC[C@H](NC=O)C(=O)N[C@@H](CCCNC(=N)N)C(=O)N[C@H](C(=O)NCC(=O)N[C@@H](CC(N)=O)C(=O)N[C@@H](C)C(=O)N[C@@H](CC(N)=O)C(=O)NCC(=O)N1CCN(c2ccc(N3C[C@H](CNC(C)=O)OC3=O)cc2F)CC1)[C@@H](C)O	Shigella flexneri	broth dilution	CGMCC 1.187	–	MIC	100 µM
[O-][N+]1=C(Cc2ccccc2)C2=NCCCN2c2ccccc21	Bacteroides spp. and Parabacteroides distasonis	–	–	–	MIC	1 to 4 µg/mL
CCCCCCCC(=O)NCCCC[C@H](NC(=O)CCCCCCC)C(=O)N[C@@H](CCCCNC(=O)CCCCCCC)C(=O)NCC(=O)NCC(=O)NCC(=O)N[C@@H](CS)C(=O)N[C@@H](CCCNC(=N)N)C(=O)N[C@@H](CCCCN)C(=O)N1CCC[C@H]1C(=O)N[C@@H](CS)C(=O)N[C@@H](CCCNC(=N)N)C(=O)N[C@@H](CCCCN)C(=O)N1CCC[C@H]1C(=O)N[C@@H](CS)C(=O)N[C@@H](CCCNC(=N)N)C(=O)N[C@@H](CCCCN)C(=O)N1CCC[C@H]1C(N)=O	Candida parapsilosis	broth microdilution	CGMCC 2.399, RPMI-1640	48 h, 30 °C	MIC	16 µM
[O-][N+]1=C(c2ccsc2)C2=NCCCN2c2ccccc21	Bacteroides spp. and Parabacteroides distasonis	–	–	–	MIC	0.25 to 1 µg/mL
CCCCCCCCCCCCCC(=O)N[C@H]1C(=O)N[C@@H](CN)C(=O)N[C@@H](CO)C(=O)N[C@@H](Cc2ccc(O)cc2)C(=O)O[C@H]1C	Staphylococcus aureus	–	SH1000	added: menaquinone-4, molar ratio 1	MIC	2 µg/mL
O=c1n(CCNCCOS(=O)(=O)c2ccccc2)c(=O)n(S(=O)(=O)c2ccccc2)c(=O)n1S(=O)(=O)c1ccccc1	Aspergillus fumigatus	microbial growth, broth dilution	–	–	MIC	16 µg/mL
C#CCOc1ccc(CN[C@@]2(C)C[C@H](O[C@H]3[C@H](Oc4c5cc6cc4Oc4ccc(cc4Cl)[C@@H](O)[C@@H](NC(=O)[C@@H](CC(C)C)NC)C(=O)N[C@@H](CC(N)=O)C(=O)N[C@H]6C(=O)N[C@H]4C(=O)N[C@H](C(=O)N[C@H](C(=O)N[C@@H](CCCNC(=N)N)C(N)=O)c6cc(O)cc(O)c6-c6cc4ccc6O)[C@H](O)c4ccc(c(Cl)c4)O5)O[C@H](CO)[C@@H](O)[C@@H]3O)O[C@@H](C)[C@H]2O)cc1OC	Enterococcus faecalis	broth microdilution	vancomycin-resistant, tryptic soy broth	20 to 24 h, 37 °C, 0.002% polysorbate 80	MIC	32 µg/mL
C[N+]1=C2C(c3ccccc3)=[N+]([O-])c3ccccc3N2CCC1	Bacteroides fragilis	–	–	–	MIC	0.5 to 4 µg/mL
CC(C)CCCCCCCCC/C=C/C(=O)N[C@@H](CC(=O)O)C(=O)N[C@H]1CNC(=O)[C@@H]2CCCN2C(=O)[C@H](C(C)C)NC(=O)[C@@H](CN)NC(=O)CNC(=O)[C@H](CC(=O)O)NC(=O)CNC(=O)[C@H](CC(=O)O)NC(=O)[C@H](CC(=O)O)NC(=O)[C@H]2CCCCN2C1=O	Enterococcus	broth microdilution	VRE 155, Mueller-Hinton broth, Mg2+ 10 mg/L	16 h, added: Ca2+ 10 mM	MIC	0.5 µg/mL

Some of these lines once more:
SMILES	target or system	test	test system	setting	measurement	value
CN[C@H](CC(C)C)C(=O)N[C@H]1C(=O)N[C@@H](CC(N)=O)C(=O)N[C@H]2C(=O)N[C@H]3C(=O)N[C@H](C(=O)N[C@H](C(=O)NCC(N)=O)c4cc(O)cc(O)c4-c4cc3ccc4O)[C@H](O)c3ccc(c(Cl)c3)Oc3cc2cc(c3O[C@@H]2O[C@H](CO)[C@@H](O)[C@H](O)[C@H]2O[C@H]2C[C@](C)(NCc3ccc(OCc4cn(CC(=O)N[C@H](C(=O)N[C@@H](CCN)C(=O)N[C@H]5CCNC(=O)[C@H]([C@@H](C)O)NC(=O)[C@H](CCN)NC(=O)[C@H](CCN)NC(=O)[C@H](CC(C)C)NC(=O)[C@@H](CC(C)C)NC(=O)[C@H](CCN)NC5=O)[C@@H](C)O)nn4)c(OC)c3)[C@H](O)[C@H](C)O2)Oc2ccc(cc2Cl)[C@H]1O	Enterococcus faecalis	broth microdilution	vancomycin-resistant	–	MIC	48 µM
